Measurements pooled from the literature.
Compare with care: the assays were run in different laboratories. Values joined by “and” are separate records of one study, mostly repeats; a detail may differ.
CASP9: Caspase-9 (CASP9, Homo sapiens, UniProt P55211)
ADK: Adenosine kinase (ADK, Homo sapiens, UniProt P55263)
USP5: Ubiquitin carboxyl-terminal hydrolase 5 (USP5, Homo sapiens, UniProt P45974)
CASP4: Caspase-4 (CASP4, Homo sapiens, UniProt P49662)
Lysophospholipase-like protein 1: Lysophospholipase-like protein 1 (Mus musculus, UniProt Q3UFF7)

`CC(=O)N[C@@H](Cc1c[nH]c2ccccc12)C(=O)N[C@@H](CCC(=O)O)C(=O)N[C@@H](Cc1c[nH]cn1)C(=O)N[C@@H](CC(=O)O)C(=O)COC(=O)c1c(C)cccc1C` gave a kinact/KI of 58300 M⁻¹ s⁻¹ (CASP9; enzyme activity, inhibitor).
The remaining binding of `Cc1ccc(-c2c(/C=C(\C#N)C(=O)NC(C)C)n(CCCO)c3ncnc(N)c23)cc1` is reported as 95% (Epidermal growth factor receptor (EGFR, Homo sapiens, UniProt P00533, L858R/T790M); cell-free assay, competition with immobilised ligand; 1 µM).
`CCCCCC=CC=C1C(=O)C=CC1CC=CCCCC(=O)O` (centres unmarked): “isoTOP-ABPP competition ratio” 1.1 (ADK; competitive isoTOP-ABPP; Ramos soluble proteome; 100 µM, added: iodoacetamide probe; baseline: DMSO over compound-treated, higher = stronger cysteine blockade).
Under thermal shift, `CC1=C[C@H](O/C=C2/C(=O)O[C@@H]3c4ccccc4C[C@H]23)OC1=O` is recorded as “no effect” (D14 (Arabidopsis thaliana, UniProt Q9SQR3); protein stability, outcome no effect, differential scanning fluorimetry).
For `Oc1cccc2c1NCCC2`, the inhibition was 44% (USP5; enzyme activity, inhibitor; 17 µM).
For `CC(C)[C@@H]1NC(=O)[C@H](Cc2ccccc2)NC(=O)CSC[C@@H](C(N)=O)NC(=O)[C@H](CCC(=O)O)NC(=O)[C@H](CO)NC(=O)[C@H](Cc2c[nH]c3cccc(Cl)c23)NC(=O)[C@H](C2CCCCC2)NC(=O)[C@H](C(C)C)NC(=O)[C@H](Cc2ccc(O)cc2)NC(=O)[C@H](CC(=O)O)NC(=O)[C@H](Cc2c[nH]c3ccccc23)NC(=O)[C@H](Cc2ccc(N)nc2)NC(=O)[C@H](Cc2c[nH]c3ccc(Cl)cc23)NC(=O)[C@H](CCC(=O)O)NC1=O`, the remaining activity was 35.5% (Interleukin-1 receptor-like 2 (IL1RL2, Homo sapiens, UniProt Q9HB29); reporter gene (SEAP), inhibitor, HEK-Blue IL-36R reporter; HEK-Blue IL-36R cells; 100 µM, 6 h, added: IL-36β 30 ng/mL).
For `C=CC(=O)N1CCCC(n2c(=O)c3ncccc3n(Cc3ccc(Oc4ccccc4)cc3)c2=O)C1` (centres unmarked), “melting temperature shift” read -5.43 (RNA cytosine C(5)-methyltransferase NSUN2 (NSUN2, Homo sapiens, UniProt Q08J23); thermal proteome profiling; cell proteome; unit not given; baseline: vehicle).
For `CCCCCC(O)/C=C/C=O` (centres unmarked), “isoTOP-ABPP competition ratio” read 1.2 (ADK; competitive isoTOP-ABPP; Ramos soluble proteome; 100 µM, added: iodoacetamide probe; baseline: DMSO over compound-treated, higher = stronger cysteine blockade).
`C=CC(=O)N1[C@H](c2ccc3c(c2)OCO3)c2[nH]c3ccccc3c2C[C@H]1C(=O)N1CCOCC1` has a Pearson correlation of 0.84 (Hepatocyte nuclear factor 3-alpha (FOXA1, Homo sapiens, UniProt P55317, C258A); chromatin binding, ChIP-seq; 22Rv1 expressing PHF5A Y36C and FOXA1 C258A; 20 µM, 3 h, unit not given; baseline: DMSO).
For `CC(=O)N[C@H](C(=O)N[C@@H](CCC(N)=O)C(=O)N[C@@H](CO)C(=O)N[C@@H](CC(=O)O)C(=O)COC(=O)c1c(C)cccc1C)C(C)(C)C`, the kinact/KI was 500 M⁻¹ s⁻¹ (CASP4; enzyme activity, inhibitor).
With `CCN(CC)C(CO)c1cccc2c(C)c(C)oc12` (centres unmarked) the fold change was 0.729 and 0.933 and 0.977 and 0.964 and 0.66 and 0.978 (Lysophosphatidic acid receptor 1 (LPAR1, Homo sapiens, UniProt Q92633, W210A); G-protein dissociation, agonist, NanoBiT; HEK-293T; 10 nM, W210A mutant; baseline: baseline luminescence).
With `CC(=O)N[C@@H](CCCNC(=N)N)C(=O)N[C@H](C(=O)N[C@@H](CCCCN)C(=O)N[C@@H](CO)C(=O)N[C@@H](CCCNC(=N)N)C(=O)N[C@H](C(=O)N[C@@H](Cc1c[nH]c2ccccc12)C(=O)N[C@@H](C)C(=O)N[C@@H](Cc1ccccc1)C(N)=O)[C@@H](C)OP(=O)(O)O)[C@@H](C)O` the ΔTm was 5.19 °C (14-3-3 protein epsilon (Homo sapiens, UniProt P62258); thermal stability, DSF; 30 µM, pH 7.4).
`O=C1c2ccccc2C2(O)NC(=S)NC12O` (centres unmarked) has an inhibition of 27% (USP5; enzyme activity, inhibitor; 17 µM).
`Nc1nc(SCc2ccc(Cl)cc2)nn1S(=O)(=O)c1ccc2c(c1)CCO2`: “probe labeling increase” 2.3 fold (Lysophospholipase-like protein 1; enzyme activity, activator, gel-based ABPP; purified protein; concentration not given, added: FP-rhodamine; baseline: DMSO).
Under “change in pEC50”, `CC[C@H](C)[C@@H]1NC(=O)[C@H](Cc2ccccc2)NC(=O)[C@H](CCC(=O)O)NC(=O)[C@H](CCCNC(=N)N)NC(=O)CNC(=O)[C@@H](NC(=O)[C@H](CC(C)C)NC(=O)[C@H](CCCNC(=N)N)NC(=O)[C@@H](NC(=O)CNC(=O)[C@H](Cc2ccc(O)cc2)NC(=O)[C@@H]2CCCN2C(=O)[C@H](C)NC(=O)[C@H](C)NC(=O)[C@@H](N)CCCNC(=N)N)C(C)C)CSSC[C@@H]2NC(=O)[C@@H](NC(=O)[C@H](CO)NC(=O)[C@H](CO)NC(=O)[C@H](CO)NC(=O)[C@H](CC(C)C)NC(=O)CNC(=O)[C@H](C)NC(=O)[C@H](CC(C)C)NC(=O)[C@@H](NC(=O)[C@@H](N)CC(=O)O)C(C)C)CSSC[C@H](NC(=O)CNC(=O)[C@H](Cc3c[nH]c4ccccc34)NC(=O)[C@H](CCCCN)NC2=O)C(=O)N[C@@H](CO)C(=O)N[C@@H](CCCCN)C(=O)N[C@@H](CO)C(=O)N[C@@H](CCC(=O)O)C(=O)N[C@@H]([C@@H](C)CC)C(=O)N[C@@H](CO)C(=O)N[C@@H](CO)C(=O)N[C@@H](CC(C)C)C(=O)N[C@H](C(=O)O)CSSC[C@@H](C(=O)NCC(=O)NCC(=O)N[C@@H](CO)C(=O)N[C@@H](CCCNC(=N)N)C(=O)N[C@@H](Cc2c[nH]c3ccccc23)C(=O)O)NC(=O)[C@H]([C@@H](C)O)NC(=O)[C@H](Cc2ccccc2)NC(=O)[C@H]([C@@H](C)CC)NC(=O)[C@H](C(C)C)NC(=O)[C@H](C)NC(=O)[C@H](CCCNC(=N)N)NC1=O` is recorded as -0.985 and -2.11 and -0.648 and -1.26 (Relaxin-3 receptor 2 (RXFP4, Homo sapiens, UniProt Q8TDU9, Q205A); agonist; Q205A mutant, unit not given; baseline: wild type).
The selectivity ratio of `CC(C)[C@H](NC(=O)[C@H](Cc1ccccc1)NC(=O)c1ccc(C(C)(C)C)cc1)C(=O)N[C@@H](CCCN)C(=O)N[C@@H](CCCCN(C)C1CC2CCC1C2)C(=O)N[C@@H](CO)C(N)=O` (some centres unmarked) is reported as 42 (Chromobox protein homolog 8 (Homo sapiens, UniProt Q9HC52); TR-FRET displacement; baseline: IC50 CBX7 over IC50 CBX8).
The Kd ratio of `Nc1ncnc2c1ncn2C1OC(CN(CCCC2CNCc3c2ccc(Cl)c3Cl)CCC(N)C(=O)O)C(O)C1O` (mixture of isomers) is reported as 30 fold (Phenylethanolamine N-methyltransferase (PNMT, Homo sapiens, UniProt P11086); binding, isothermal titration calorimetry; SAH-bound enzyme; baseline: second site over first site).
`CC(=O)N[C@@H](CC(=O)O)C(=O)N[C@@H](CCC(=O)O)C(=O)N[C@@H](CC(C)C)C(=O)N[C@@H](CC(=O)O)C(=O)COC(=O)c1c(C)cccc1C` gave a kinact/KI of 22400 M⁻¹ s⁻¹ (CASP9; enzyme activity, inhibitor).
`CC(=O)N[C@@H](CCCCN)C(=O)N[C@H](C(=O)N[C@@H](Cc1ccc(O)cc1)C(=O)N[C@@H](Cc1ccc(O)cc1)C(=O)N[C@@H](CCCNC(=N)N)C(=O)N[C@@H](Cc1ccc(O)cc1)C(=O)N[C@@H](CC(N)=O)C(=O)NCC(=O)N[C@@H](CCCCN)C(=O)N[C@H](C(=O)N[C@@H](Cc1c[nH]c2ccccc12)C(=O)N[C@@H](Cc1c[nH]c2ccccc12)C(=O)N[C@@H](CCCNC(=N)N)C(=O)O)C(C)C)C(C)C`: “random coil content” 45% (Insulin (INS, Bos taurus, UniProt P01317); circular dichroism; insulin-peptide complex; concentration not given, 800 min, 62 °C, heat incubation, added: insulin 350 µM).
`COc1ncc2nc(C)n(Cc3ncc(S(N)(=O)=O)cc3F)c2c1-c1ccccc1` has an activation of 2.81% (Histamine H1 receptor (HRH1, Homo sapiens, UniProt P35367); agonist, cell-based; 10 µM).
For `Cc1cc(C)cc(COc2cc3c(cc2OCc2cc(C)cc(C)c2)C2CC(O)(Cc4cn(CCOCCOCCNC(=O)CCCCC5SCC6NC(=O)NC65)nn4)CC(C)N2CC3)c1` (centres unmarked), the SILAC ratio was 4.41 (Transportin-1 (TNPO1, Homo sapiens, UniProt Q92973); biotinylated probe pull-down; 10 µM probe; baseline: heavy over light).
For `CC(C=CC=C(C)C=CC1=C(C)CCCC1(C)C)=CC=O`, “Pearson correlation coefficient” read 0.45 (Rhodopsin (RHO, Homo sapiens, UniProt P08100, T17M); ER retention, immunostaining co-localization, refers to: opsin with calnexin; COS-7 transfected T17M; 20.00 µM).
`COc1cc(Nc2nccc(-c3cnn4nc(OC)ccc34)n2)cc(C(F)(F)F)c1` gave a remaining binding of 100% (Epidermal growth factor receptor (EGFR, Homo sapiens, UniProt P00533, del752-759); binding; 1 µM).
For `CC(=O)N[C@H](C(=O)N[C@@H](CCCNC(N)=O)C(=O)N[C@@H](CCO)C(=O)N[C@@H](CC(=O)O)C(=O)COC(=O)c1c(C)cccc1C)C1CCCCC1`, the kinact/KI was 200 M⁻¹ s⁻¹ (CASP4; enzyme activity, inhibitor).
`O=C1c2sc(-c3ccc(N4CCC(F)C4)nc3F)nc2CCN1c1cccnc1` (centres unmarked) has an inhibition of 10% (Substance-P receptor (TACR1, Homo sapiens, UniProt P25103); ligand displacement, radioligand; 1 µM).
`CC(=O)N[C@H](C(=O)N[C@@H](CCC(=O)O)C(=O)N[C@@H](CO)C(=O)N[C@@H](CC(=O)O)C(=O)COC(=O)c1c(C)cccc1C)[C@@H](C)O` gave a kinact/KI of 9600 M⁻¹ s⁻¹ (CASP9; enzyme activity, inhibitor).
For `Nc1nc(SCc2ccc(Cl)cc2)nn1S(=O)(=O)c1ccc2ncsc2c1`, “probe labeling increase” read 2.8 fold (Lysophospholipase-like protein 1; enzyme activity, activator, gel-based ABPP; purified protein; concentration not given, added: FP-rhodamine; baseline: DMSO).
`N#CN1CC[C@H](C(=O)Nc2nc3c(s2)CN(C(=O)Cn2cc(CNC(=O)CCCC[C@@H]4SC[C@@H]5NC(=O)N[C@@H]54)nn2)CC3)C1` has an iBAQ abundance of 3.46e+08 (Isochorismatase domain-containing protein 2 (ISOC2, Homo sapiens, UniProt Q96AB3); probe binding, affinity probe, neutravidin pull-down LC-MS/MS; HEK293T, cell lysate; 5 µM, 1 h, mean of three replicates, unit not given; higher = more pulled down).
`CC(=O)N[C@@H](CCC(C)C)C(=O)N[C@H](C(=O)N[C@@H](CO)C(=O)N[C@@H](CC(=O)O)C(=O)COC(=O)c1c(C)cccc1C)C(C)(C)C` gave a kinact/KI of 48100 M⁻¹ s⁻¹ (CASP9; enzyme activity, inhibitor).

A few entries again:
The remaining binding of `Cc1ccc(-c2c(/C=C(\C#N)C(=O)NC(C)C)n(CCCO)c3ncnc(N)c23)cc1` is reported as 95% (Epidermal growth factor receptor (EGFR, Homo sapiens, UniProt P00533, L858R/T790M); cell-free assay, competition with immobilised ligand; 1 µM).
`CCCCCC=CC=C1C(=O)C=CC1CC=CCCCC(=O)O` (centres unmarked): “isoTOP-ABPP competition ratio” 1.1 (ADK; competitive isoTOP-ABPP; Ramos soluble proteome; 100 µM, added: iodoacetamide probe; baseline: DMSO over compound-treated, higher = stronger cysteine blockade).
Under thermal shift, `CC1=C[C@H](O/C=C2/C(=O)O[C@@H]3c4ccccc4C[C@H]23)OC1=O` is recorded as “no effect” (D14 (Arabidopsis thaliana, UniProt Q9SQR3); protein stability, outcome no effect, differential scanning fluorimetry).
For `Oc1cccc2c1NCCC2`, the inhibition was 44% (USP5; enzyme activity, inhibitor; 17 µM).
